# Results collected from several papers.
# Numbered parts are unrelated; each lists some results of a single study. Several values in a cell are separate wells, animals, samples, runs or records.
# Sequence of UniProt P25098 (whole entry, looked up): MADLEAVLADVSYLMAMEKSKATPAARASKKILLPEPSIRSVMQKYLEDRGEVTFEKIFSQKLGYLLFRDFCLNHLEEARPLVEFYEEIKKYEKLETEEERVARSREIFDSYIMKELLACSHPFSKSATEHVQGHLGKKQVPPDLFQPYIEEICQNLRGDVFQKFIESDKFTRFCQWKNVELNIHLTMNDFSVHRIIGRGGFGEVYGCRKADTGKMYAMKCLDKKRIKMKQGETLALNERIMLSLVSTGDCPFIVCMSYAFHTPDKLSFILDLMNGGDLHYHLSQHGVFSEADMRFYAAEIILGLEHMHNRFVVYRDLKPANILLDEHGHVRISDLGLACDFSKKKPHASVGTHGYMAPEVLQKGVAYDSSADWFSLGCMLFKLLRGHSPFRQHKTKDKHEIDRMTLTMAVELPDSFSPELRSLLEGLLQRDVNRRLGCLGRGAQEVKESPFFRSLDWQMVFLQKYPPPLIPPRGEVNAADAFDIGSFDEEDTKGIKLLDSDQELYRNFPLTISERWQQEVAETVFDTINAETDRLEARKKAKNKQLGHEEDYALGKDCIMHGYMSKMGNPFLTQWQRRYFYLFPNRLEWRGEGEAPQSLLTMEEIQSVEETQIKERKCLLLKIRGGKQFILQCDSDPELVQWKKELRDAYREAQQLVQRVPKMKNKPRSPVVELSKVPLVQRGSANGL
# Sequence of UniProt O00141 (whole entry, looked up): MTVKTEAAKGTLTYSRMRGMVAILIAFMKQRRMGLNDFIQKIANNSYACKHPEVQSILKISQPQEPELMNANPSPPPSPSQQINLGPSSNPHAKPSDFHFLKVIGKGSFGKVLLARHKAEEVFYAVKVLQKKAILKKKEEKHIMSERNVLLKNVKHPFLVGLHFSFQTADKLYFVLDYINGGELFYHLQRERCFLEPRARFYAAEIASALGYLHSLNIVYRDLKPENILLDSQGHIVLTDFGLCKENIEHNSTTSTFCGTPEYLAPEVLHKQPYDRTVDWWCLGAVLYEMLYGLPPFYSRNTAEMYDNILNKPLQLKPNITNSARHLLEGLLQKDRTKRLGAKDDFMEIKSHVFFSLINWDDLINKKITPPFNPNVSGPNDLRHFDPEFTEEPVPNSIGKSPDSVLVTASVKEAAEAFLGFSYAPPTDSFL
# Sequence of UniProt O60285 (whole entry, looked up): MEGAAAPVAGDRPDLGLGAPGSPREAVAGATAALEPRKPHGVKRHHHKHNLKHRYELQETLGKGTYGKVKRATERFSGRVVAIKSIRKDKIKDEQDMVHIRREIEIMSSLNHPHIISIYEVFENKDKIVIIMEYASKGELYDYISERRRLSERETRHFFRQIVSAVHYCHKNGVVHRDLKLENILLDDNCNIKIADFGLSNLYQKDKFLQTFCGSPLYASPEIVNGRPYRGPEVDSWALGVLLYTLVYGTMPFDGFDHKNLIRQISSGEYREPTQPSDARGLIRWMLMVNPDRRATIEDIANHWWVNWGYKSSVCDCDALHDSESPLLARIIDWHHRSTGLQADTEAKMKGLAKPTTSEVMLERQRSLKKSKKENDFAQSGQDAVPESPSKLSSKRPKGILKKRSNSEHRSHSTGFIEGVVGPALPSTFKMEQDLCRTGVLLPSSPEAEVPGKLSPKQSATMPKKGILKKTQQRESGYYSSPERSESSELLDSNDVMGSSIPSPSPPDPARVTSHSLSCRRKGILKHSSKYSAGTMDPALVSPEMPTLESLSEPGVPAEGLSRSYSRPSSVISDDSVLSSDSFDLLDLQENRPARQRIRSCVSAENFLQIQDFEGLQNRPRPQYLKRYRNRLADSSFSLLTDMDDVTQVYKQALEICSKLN
# Sequence of UniProt P49759 (whole entry, looked up): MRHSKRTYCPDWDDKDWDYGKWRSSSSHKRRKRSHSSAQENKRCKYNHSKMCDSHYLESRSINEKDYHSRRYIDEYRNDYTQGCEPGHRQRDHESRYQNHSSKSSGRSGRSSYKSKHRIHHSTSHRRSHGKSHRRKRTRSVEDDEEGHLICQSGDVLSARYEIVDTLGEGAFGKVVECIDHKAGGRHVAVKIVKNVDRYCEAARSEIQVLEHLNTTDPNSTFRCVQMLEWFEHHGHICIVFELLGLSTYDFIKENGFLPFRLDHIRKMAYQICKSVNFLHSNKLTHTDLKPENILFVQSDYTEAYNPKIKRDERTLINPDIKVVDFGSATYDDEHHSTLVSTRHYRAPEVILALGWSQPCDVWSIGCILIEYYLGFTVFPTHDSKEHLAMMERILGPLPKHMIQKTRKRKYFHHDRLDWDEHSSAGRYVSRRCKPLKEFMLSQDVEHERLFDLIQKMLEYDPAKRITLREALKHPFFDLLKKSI
# Sequence of UniProt Q9UQB9 (whole entry, looked up): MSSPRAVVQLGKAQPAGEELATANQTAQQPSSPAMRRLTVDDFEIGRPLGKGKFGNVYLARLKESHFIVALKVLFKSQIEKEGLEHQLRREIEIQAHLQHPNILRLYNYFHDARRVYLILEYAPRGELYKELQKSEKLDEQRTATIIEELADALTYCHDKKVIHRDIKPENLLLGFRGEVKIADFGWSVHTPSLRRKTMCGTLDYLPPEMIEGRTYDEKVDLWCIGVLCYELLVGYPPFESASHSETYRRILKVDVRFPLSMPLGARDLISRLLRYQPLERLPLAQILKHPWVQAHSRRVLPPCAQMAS
# Sequence of UniProt Q13523 (whole entry, looked up): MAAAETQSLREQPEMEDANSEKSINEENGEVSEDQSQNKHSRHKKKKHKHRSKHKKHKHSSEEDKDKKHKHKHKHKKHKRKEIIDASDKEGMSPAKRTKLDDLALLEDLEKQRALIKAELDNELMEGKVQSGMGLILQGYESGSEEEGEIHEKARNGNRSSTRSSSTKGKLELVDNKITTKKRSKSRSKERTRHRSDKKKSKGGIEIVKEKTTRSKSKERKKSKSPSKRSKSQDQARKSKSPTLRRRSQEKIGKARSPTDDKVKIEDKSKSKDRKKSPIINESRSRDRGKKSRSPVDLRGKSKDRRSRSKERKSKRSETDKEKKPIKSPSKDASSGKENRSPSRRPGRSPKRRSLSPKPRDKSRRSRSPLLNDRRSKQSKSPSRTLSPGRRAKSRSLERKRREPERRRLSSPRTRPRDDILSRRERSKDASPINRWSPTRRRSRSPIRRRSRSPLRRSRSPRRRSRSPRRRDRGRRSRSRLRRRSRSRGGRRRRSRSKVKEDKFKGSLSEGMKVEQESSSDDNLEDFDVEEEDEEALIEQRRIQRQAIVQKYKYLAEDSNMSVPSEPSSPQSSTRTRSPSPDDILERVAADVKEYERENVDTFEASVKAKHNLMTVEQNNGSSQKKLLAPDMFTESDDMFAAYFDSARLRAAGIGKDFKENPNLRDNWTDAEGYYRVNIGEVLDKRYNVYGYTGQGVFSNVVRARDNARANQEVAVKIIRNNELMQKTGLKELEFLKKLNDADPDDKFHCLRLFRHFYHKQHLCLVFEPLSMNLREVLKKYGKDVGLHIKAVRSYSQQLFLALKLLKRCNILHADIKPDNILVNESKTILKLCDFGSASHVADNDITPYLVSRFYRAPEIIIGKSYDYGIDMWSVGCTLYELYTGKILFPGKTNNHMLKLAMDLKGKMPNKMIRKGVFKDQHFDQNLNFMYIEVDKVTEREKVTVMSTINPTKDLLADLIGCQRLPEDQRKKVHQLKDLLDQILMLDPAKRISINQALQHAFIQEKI

# Set 1
# Target: BDNF/NT-3 growth factors receptor (NTRK2, Homo sapiens, UniProt Q16620)
# Sequence of UniProt Q16620 (whole entry, looked up): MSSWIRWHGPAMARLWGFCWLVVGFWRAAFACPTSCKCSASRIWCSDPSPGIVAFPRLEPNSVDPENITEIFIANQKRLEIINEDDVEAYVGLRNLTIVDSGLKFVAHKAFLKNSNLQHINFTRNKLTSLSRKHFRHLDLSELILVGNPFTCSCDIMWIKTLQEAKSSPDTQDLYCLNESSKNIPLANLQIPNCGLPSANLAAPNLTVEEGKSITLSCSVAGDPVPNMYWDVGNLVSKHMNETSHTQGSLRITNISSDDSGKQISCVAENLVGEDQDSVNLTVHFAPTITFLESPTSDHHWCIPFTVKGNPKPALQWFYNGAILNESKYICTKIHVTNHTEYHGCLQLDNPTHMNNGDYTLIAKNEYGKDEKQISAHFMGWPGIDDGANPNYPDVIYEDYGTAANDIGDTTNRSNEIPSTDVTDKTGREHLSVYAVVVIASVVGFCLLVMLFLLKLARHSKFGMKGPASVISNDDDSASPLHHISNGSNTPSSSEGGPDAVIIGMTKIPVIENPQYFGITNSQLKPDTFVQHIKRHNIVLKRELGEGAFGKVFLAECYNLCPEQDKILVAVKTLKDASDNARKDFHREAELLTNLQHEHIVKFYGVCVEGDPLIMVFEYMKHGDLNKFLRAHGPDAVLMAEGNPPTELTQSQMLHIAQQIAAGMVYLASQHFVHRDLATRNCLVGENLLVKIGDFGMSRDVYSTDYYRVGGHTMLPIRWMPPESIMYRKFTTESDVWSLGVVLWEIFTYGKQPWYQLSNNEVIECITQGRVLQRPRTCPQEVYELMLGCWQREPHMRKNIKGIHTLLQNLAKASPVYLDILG
# Read-out: enzyme activity
# Action: inhibitor
# Concentration: 0.5 µM
# Relative to: control
SMILES,remaining activity [%]
O=Nc1c(-c2c(O)[nH]c3ccccc23)[nH]c2ccccc12,4.08
N#C/C(=C(/N)SC1C=CC=CC1)c1cccc(C(O)c2ccncc2)c1 (stereo not drawn),104
NC(=O)c1ccc(-c2nc(-c3ccc4c(c3)OCCO4)c(-c3ccccn3)[nH]2)cc1,103
c1cc(-c2cnn3cc(-c4ccc(OCCN5CCCCC5)cc4)cnc23)ccn1,26.1
FC(F)(F)c1ccc(/C=C/c2nc(COc3ccc(CCCCn4ccnn4)cc3)co2)cc1,102
N#CC(c1ccnc(NCCc2cccnc2)n1)c1nc2ccccc2s1 (stereo not drawn),93.2
CCCCc1c(-c2ccc(O)cc2)[nH]c2nccnc12,73.7
CC(C)N(CCC(=O)c1ccc2ccccc2c1)Cc1ccccc1,92.1
O=C1c2ccccc2-c2nc3nnnn3nc21,29.4
O=c1c(-c2ccc(F)cc2)c(-c2ccncc2)[nH]n1-c1ccc(Cl)cc1,88.5
Clc1ccc(Nc2nnc(Cc3ccncc3)c3ccccc23)cc1,102
NC(=O)c1cccc(-c2cc(Nc3ccc(OC(F)(F)F)cc3)ncn2)c1,96
CC(C)n1cnc2c(Nc3cccc(Cl)c3)nc(NCCO)nc21,66.1
C[C@@H](N)[C@H]1CC[C@H](C(=O)Nc2ccncc2)CC1,102
COc1cc2c(Nc3ccc(Br)cc3F)ncnc2cc1OCC1CCN(C)CC1,93.2
O=C(c1ccccc1)c1ccc(N2CCOCC2)cc1O,92.7
CCN(CC)CCCCN1c2ccccc2Oc2ccc(Cl)cc21,102
CC(C)(C)c1nc2c3cc[nH]c(=O)c3c3cc(F)ccc3c2[nH]1,16.1
CNc1cc2c(Nc3cccc(Br)c3)ncnc2cn1,94.3
Nc1nc(Nc2ccc(S(N)(=O)=O)cc2)nn1C(=S)Nc1c(F)cccc1F,11.8
O=C(O)/C=C/c1cc(Br)c(Br)c(Br)c1Br,98.2
O=C1NC(=O)/C(=C/c2ccc3c(c2)OC(F)(F)O3)S1,91.9

# Set 2
# SMILES: O=C(Nc1ccccc1)Nc1cccc(Oc2ccc3nccn3n2)c1
# Technique: competitive binding panel
# Concentration: 1 µM
# Relative to: vehicle
target,measured,remaining binding
"DAPK2 (Homo sapiens, UniProt Q9UIK4)",,100%
"Aurora kinase C (AURKC, Homo sapiens, UniProt Q9UQB9)",,74%
"CDKL2 (Homo sapiens, UniProt Q92772)",,96%
"PLK3 (Homo sapiens, UniProt Q9H4B4)",,100%
"LIM domain kinase 1 (LIMK1, Homo sapiens, UniProt P53667)",,100%
"WNK1 (Homo sapiens, UniProt Q9H4A3)",,100%
"CDK14 (Homo sapiens, UniProt O94921)",PFTK1,100%
"MAST1 (Homo sapiens, UniProt Q9Y2H9)",,100%
"PRKD1 (Homo sapiens, UniProt Q15139)",,100%
"STK3 (Homo sapiens, UniProt Q13188)",MST2,100%
"CLK1 (Homo sapiens, UniProt P49759)",,94%
"PIKFYVE (Homo sapiens, UniProt Q9Y2I7)",,100%
"JAK1 (Homo sapiens, UniProt P23458)",,95%
"PAK3 (Homo sapiens, UniProt O75914)",,100%
"NUAK1 (Homo sapiens, UniProt O60285)",ARK5,100%

# Set 3
# SMILES: Cn1nc(C(F)(F)F)cc1-c1cnc(N2CCc3cc(S(=O)(=O)Nc4c(F)cc(Cl)cc4F)cc(N4CCCC4=O)c32)nc1
# Read-out: cell-free assay
# Technique: competition with immobilised ligand
# Concentration: 1 µM
target,remaining binding [%]
"PIM1 (Homo sapiens, UniProt P11309)",97
"PTK2B (Homo sapiens, UniProt Q14289)",100
"PRPF4B (Homo sapiens, UniProt Q13523)",100
"SGK1 (Homo sapiens, UniProt O00141)",100
"DAPK1 (Homo sapiens, UniProt P53355)",96
"TYRO3 (Homo sapiens, UniProt Q06418)",100
"MAP4K3 (Homo sapiens, UniProt Q8IVH8)",84
"GRK2 (Homo sapiens, UniProt P25098)",85
"RIPK2 (Homo sapiens, UniProt O43353)",82
"CDC42BPA (Homo sapiens, UniProt Q5VT25)",100
"GSK3A (Homo sapiens, UniProt P49840)",95
"MAPK3 (Homo sapiens, UniProt P27361)",100
"FLT3 (Homo sapiens, UniProt P36888, R834Q)",97
"PNCK (Homo sapiens, UniProt Q6P2M8)",80
"BRAF (Homo sapiens, UniProt P15056, V600E)",100

# Set 4
# Target: Eukaryotic initiation factor 4A-I (EIF4A1, Homo sapiens, UniProt P60842)
# Sequence of UniProt P60842 (whole entry, looked up): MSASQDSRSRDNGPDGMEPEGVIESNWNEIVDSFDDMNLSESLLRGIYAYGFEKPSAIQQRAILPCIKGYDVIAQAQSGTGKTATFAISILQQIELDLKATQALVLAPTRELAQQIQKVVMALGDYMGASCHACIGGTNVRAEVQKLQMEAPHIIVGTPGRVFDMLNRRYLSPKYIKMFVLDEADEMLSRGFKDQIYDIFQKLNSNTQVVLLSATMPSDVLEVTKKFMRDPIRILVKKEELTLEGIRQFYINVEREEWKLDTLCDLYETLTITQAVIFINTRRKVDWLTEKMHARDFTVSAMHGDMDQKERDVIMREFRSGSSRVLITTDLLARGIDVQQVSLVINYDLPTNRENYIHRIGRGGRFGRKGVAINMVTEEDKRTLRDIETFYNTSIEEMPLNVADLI
# Read-out: RNA clamping
# Technique: fluorescence polarization
# Concentration: concentration not given
# Added: FAM-labelled poly r(AG)8 RNA
# Direction: higher = more clamping
SMILES,fluorescence polarization change
COC(=O)[C@@H]1[C@@H](c2ccccc2)[C@]2(c3ccc(OC)cc3)Oc3cc(OC)cc(OC)c3[C@@]23OC(c2ccccc2Cl)=N[C@@]13O,-16.8 mP
COC(=O)[C@@H]1[C@@H](c2ccccc2)[C@]2(c3ccc(OC)cc3)Oc3cc(OC)cc(OC)c3[C@@]23NC(Cc2ccccc2)=N[C@@]13O,65.4 mP and 43.3 mP
COC(=O)[C@H]1[C@@H](O)[C@@]2(O)c3c(OC)cccc3N(C)[C@@]2(c2ccc(OC)cc2)[C@@H]1c1ccccc1,2.6 mP
COC(=O)[C@@H]1[C@@H](c2ccccc2)[C@]2(c3ccc(OC)cc3)Oc3cc(OC)cc(OC)c3[C@@]23NC(c2ccc(C(F)(F)F)cc2)=N[C@@]13O,11.5 mP
COC(=O)CCCn1c(-c2ccccc2)nc2c(c1=O)[C@H](c1ccccc1)[C@]1(c3ccc(OC)cc3)Oc3cc(OC)cc(OC)c3[C@]21O,15.6 mP
COC(=O)[C@@H]1[C@@H](c2ccccc2)[C@]2(c3ccc(OC)cc3)Oc3cc(OC)cc(OC)c3[C@@]23NC(C(F)(F)F)=N[C@@]13O,30.7 mP
COc1ccc([C@]23[C@H](c4ccccc4)C[C@@H](O)[C@@]2(O)c2c(F)cccc2N3C)cc1,1.7 mP
CCOC(=O)COc1nc(-c2ccccc2)nc2c1[C@@H](c1ccccc1)[C@]1(c3ccc(OC)cc3)Oc3cc(OC)cc(OC)c3[C@]21OCC(=O)OCC,9.6 mP
O[C@@H]1C2(O)c3ccccc3O[C@]1(c1ccccc1)[C@@H](/C=C/c1ccccc1)[C@@H]2c1ccccc1,9.6 mP
COC(=O)[C@H]1C(=O)[C@@]2(NCc3ccccc3)c3c(OC)cc(OC)cc3O[C@@]2(c2ccc(OC)cc2)[C@@H]1c1ccccc1,-3.3 mP
COc1ccc([C@@]23Oc4cc(OC)cc(OC)c4[C@]2(O)c2nc(C4CCCCC4)[nH]c(=O)c2[C@H]3c2ccccc2)cc1,39.6 mP
COC(=O)[C@H]1C(=O)[C@@]2(Nc3ccccc3)c3c(OC)cc(OC)cc3O[C@@]2(c2ccc(OC)cc2)[C@@H]1c1ccccc1,-12.1 mP
COc1ccc([C@@]23Oc4cc(OC)cc(OC)c4[C@]2(O)[C@H](O)[C@H](CN(C)C)[C@H]3c2ccccc2)cc1,70.7 mP
COC(=O)[C@H]1C(=O)[C@@]2(NCCN3CCOCC3)c3c(OC)cc(OC)cc3O[C@@]2(c2ccc(OC)cc2)[C@@H]1c1ccccc1,13.5 mP

# Repeated from above (set 1):
SMILES,remaining activity [%]
C[C@@H](N)[C@H]1CC[C@H](C(=O)Nc2ccncc2)CC1,102
COc1cc2c(Nc3ccc(Br)cc3F)ncnc2cc1OCC1CCN(C)CC1,93.2
O=C(c1ccccc1)c1ccc(N2CCOCC2)cc1O,92.7
CCN(CC)CCCCN1c2ccccc2Oc2ccc(Cl)cc21,102
CC(C)(C)c1nc2c3cc[nH]c(=O)c3c3cc(F)ccc3c2[nH]1,16.1
CNc1cc2c(Nc3cccc(Br)c3)ncnc2cn1,94.3
Nc1nc(Nc2ccc(S(N)(=O)=O)cc2)nn1C(=S)Nc1c(F)cccc1F,11.8
